Experimental data collected from several papers.
Each line is one published result; not all experiments were run side by side. Several values in a cell are separate wells, animals, samples, runs or records.
Target: D(1A) dopamine receptor (DRD1, Homo sapiens, UniProt P21728)

| SMILES | assay | system | conditions | scale | measurement | result |
| --- | --- | --- | --- | --- | --- | --- |
| CS(C)(=O)=Nc1ccc(-c2ccc(-c3nc4cc(O[C@@H]5CO[C@H]6[C@@H]5OC[C@H]6O)[nH]c4cc3F)cc2)cc1 | calcium signal, antagonist |  | 10 µM |  | inhibition | -28% |
| N[C@H](C(=O)N1CCCC1)C1CCN(c2nccc3c(-c4ncc(Cl)cc4Cl)cccc23)CC1 | functional response, antagonist |  | 10 µM |  | inhibition | -3% |
| C/C(=N\OCCCN1CCCCC1)c1ccc(C(F)(F)F)cc1 | antagonist, cAMP |  | 10 µM |  | inhibition | 15.9% |
| COc1ccc(F)cc1S(=O)(=O)Nc1cnc2c(c1)C(=O)NCCO2 | ligand displacement, radioligand |  | 10 µM |  | inhibition | 0% |
| CCN(CC)CCOc1ccc(-c2nnn(Cc3ccc(OC)cc3)c2N)cc1 | radioligand binding | HEK293 | 10 µM, safety profiling |  | inhibition | 45.4% |
| Cc1sc2c(c1C)C(c1ccc(Cl)cc1)=NC(CC(=O)OC(C)(C)C)c1nnc(C)n1-2 (centres unmarked) | ligand displacement, radioligand |  | 1 µM |  | inhibition | -2% |
| Cc1cc(Nc2nc(C[C@@]3(C(=O)O)CCN(Cc4cccc(Cl)c4F)[C@H](C)C3)cc(C)c2F)[nH]n1 | agonist |  | 10 µM |  | activation | 1.35% |
| CN[C@@H]1[C@H](O)[C@H](NC)[C@H]2O[C@]3(O)[C@H](O[C@@H]2[C@H]1O)O[C@H](C)C[C@H]3NC(=O)Cc1cc(Cl)ccn1 | ligand displacement, radioligand |  | 10 µM |  | inhibition | 6% |
| O=C(O)c1ccc(-c2nc(-c3ccccc3Cl)c3sccn23)cc1 | radioligand binding, safety screen panel |  | 10 µM | reference: control | specific binding | 97.7% and 96.1% |
| CCCO[C@H]1[C@H](O)[C@@H](N)[C@@H](O[C@H]2[C@H](O[C@@H]3O[C@H](CO)[C@@H](O[C@H]4O[C@@H](CN)[C@@H](O)[C@H](O)[C@H]4N)[C@H]3O)[C@@H](O)[C@H](N)C[C@@H]2N)O[C@@H]1CO | radioligand binding |  | 10 µM, 1% DMSO |  | specific binding | 5% |
| COc1ccccc1N1CCN(CCCCN2CCCc3ccccc3C2=O)CC1 | radioligand binding |  | concentration not given, added: [3H]SCH23390 |  | inhibition | 43.6% |
| C[C@H](NCc1ccc(-c2ccc(C(F)(F)F)cc2)cc1)C(N)=O | radioligand binding, SafetyScreen panel |  | 1 µM, species human, added: 1.40 nM [3H]SCH-23390 |  | inhibition | 2% |
| CCc1nnc(-c2c(OC)cc(-c3cnc4cc(-c5cnn(C)c5)ccn34)cc2OC)o1 | antagonist radioligand, radioligand binding |  | 10 µM, SafetyScreen44 D1 replicate 2 | lower = stronger displacement | remaining binding | 94.4% |
| Cc1cc(-c2ccc3ccccc3c2)nnc1NCCN1CCN(C)CC1 | antagonist |  | 10000 nM | reference: control | activity | 0% |

Excerpt of the above:
| SMILES | assay | system | conditions | scale | measurement | result |
| --- | --- | --- | --- | --- | --- | --- |
| CCc1nnc(-c2c(OC)cc(-c3cnc4cc(-c5cnn(C)c5)ccn34)cc2OC)o1 | antagonist radioligand, radioligand binding |  | 10 µM, SafetyScreen44 D1 replicate 2 | lower = stronger displacement | remaining binding | 94.4% |
